Values quoted from earlier work as cited in several papers.
Compare with care: the assays were run in different laboratories. “And” joins repeats or separate records; there may be more than shown. Numbers after ± are the reported error.
Sequence of UniProt Q00961 (whole entry, looked up): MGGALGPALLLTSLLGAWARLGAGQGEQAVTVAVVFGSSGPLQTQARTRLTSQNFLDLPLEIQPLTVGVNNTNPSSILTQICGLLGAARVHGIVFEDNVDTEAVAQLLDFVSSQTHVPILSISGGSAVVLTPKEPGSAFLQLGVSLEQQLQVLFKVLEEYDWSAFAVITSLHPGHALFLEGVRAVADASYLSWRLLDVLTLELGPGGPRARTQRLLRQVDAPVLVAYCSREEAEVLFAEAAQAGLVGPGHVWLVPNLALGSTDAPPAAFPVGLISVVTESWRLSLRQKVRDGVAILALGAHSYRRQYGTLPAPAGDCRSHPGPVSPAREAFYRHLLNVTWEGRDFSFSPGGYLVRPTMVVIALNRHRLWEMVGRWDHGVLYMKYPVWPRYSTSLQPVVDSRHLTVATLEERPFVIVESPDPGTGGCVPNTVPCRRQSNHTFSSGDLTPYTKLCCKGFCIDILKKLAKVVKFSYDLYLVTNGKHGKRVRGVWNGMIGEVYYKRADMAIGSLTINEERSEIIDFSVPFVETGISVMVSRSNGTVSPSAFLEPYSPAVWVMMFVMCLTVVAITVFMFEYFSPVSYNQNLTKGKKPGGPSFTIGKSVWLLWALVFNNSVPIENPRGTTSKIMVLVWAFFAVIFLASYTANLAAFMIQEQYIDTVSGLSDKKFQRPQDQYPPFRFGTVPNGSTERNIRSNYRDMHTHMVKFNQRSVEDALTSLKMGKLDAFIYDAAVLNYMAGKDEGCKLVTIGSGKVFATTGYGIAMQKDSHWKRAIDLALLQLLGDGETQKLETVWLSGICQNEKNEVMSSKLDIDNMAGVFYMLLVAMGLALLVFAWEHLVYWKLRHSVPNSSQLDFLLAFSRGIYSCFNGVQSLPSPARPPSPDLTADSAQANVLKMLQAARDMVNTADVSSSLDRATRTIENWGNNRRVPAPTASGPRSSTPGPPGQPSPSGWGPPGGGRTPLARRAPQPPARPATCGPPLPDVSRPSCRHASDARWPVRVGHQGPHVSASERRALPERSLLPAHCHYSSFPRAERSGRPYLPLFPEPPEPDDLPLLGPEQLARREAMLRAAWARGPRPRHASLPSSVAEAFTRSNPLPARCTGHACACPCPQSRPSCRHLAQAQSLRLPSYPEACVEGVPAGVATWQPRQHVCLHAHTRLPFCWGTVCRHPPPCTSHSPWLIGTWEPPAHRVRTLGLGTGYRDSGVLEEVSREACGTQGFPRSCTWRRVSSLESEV

| Compound | target or system | test | system | setting | how to read | measurement | result |
| --- | --- | --- | --- | --- | --- | --- | --- |
| COc1ccc2occ(/C=C/c3cc(OC)c(OC)c(OC)c3)c(=O)c2c1 | Ca9-22 |  |  |  |  | CC50 | 13 ± 6.1 µM |
| CS(=O)(=O)CCNCc1ccc(-c2ccc3ncnc(Nc4ccc(OCc5cccc(F)c5)c(Cl)c4)c3c2)o1 | hiPSC-derived cardiomyocytes | contractility |  | concentration not given, 72 h, at effective concentration | relative to: baseline | log2 fold change | 0.4 |
| O=C1c2ccccc2-c2c1c1ccc([N+](=O)[O-])cc1c(=O)n2CCCn1ccnc1 | colon HCT-116 | cell growth |  |  |  | GI50 | 0.274 µM |
| COc1ccc2occ(/C=C/c3ccc(O)cc3)c(=O)c2c1 | human gingival fibroblasts |  |  |  |  | CC50 | 138 ± 116 µM |
| CCCCCCCCCCCCCCCCO[C@@H]1O[C@H](CO)[C@@H](O)[C@H](O)[C@H]1O | B16-F10 | cytotoxicity, MTT |  | 24 h |  | EC50 | 50 µM |
| N#Cc1ccc2c3c(n(CCCn4ccnc4)c(=O)c2c1)-c1ccccc1C3=O | NCI-60 panel mean | cell growth |  |  |  | GI50 | 0.944 µM and ≥ 0.944 µM |
| Cc1ccccc1-c1cc(N2CCN(C)CC2)ncc1N(C)C(=O)C(C)(C)c1cc(C(F)(F)F)cc(C(F)(F)F)c1 |  |  | patients, plasma | oral, dose not given, netupitant-palonosetron combination, with: docetaxel 75 to 100 mg/m^2 IV |  | CL/F | 19.5 L/h |
| COc1cccc2c1C(=O)c1c(O)c3c(c(O)c1C2=O)C[C@@](O)(C(=O)CO)C[C@@H]3O[C@H]1C[C@H](N)[C@H](O)[C@H](C)O1 | human gingival fibroblasts |  |  |  |  | CC50 | > 3.9 µM |
| COc1cc2c3c(n(CCCn4ccnc4)c(=O)c2cc1OC)-c1cc2c(cc1C3=O)OCO2 | NCI-60 panel (60 lines) |  |  | mean graph midpoint |  | GI50 | 0.079 ± 0.023 µM |
| C[C@]12CC[C@@H]3c4ccc(O)cc4CC[C@H]3[C@@H]1CC[C@@H]2OC(=O)c1ccccc1 | HT-22 | cell protection |  | with: glutamate 20 mM |  | EC50 | 9.03 µM |
| O=c1c2nc(Br)n([C@@H]3O[C@@H]4COP(=O)(O)O[C@H]4[C@H]3O)c2nc2[nH]c(-c3ccccc3)cn12 | PDE1B | cyclic nucleotide hydrolysis, substrate or inhibitor, isothermal titration calorimetry |  |  |  | Km or Ki | 2.13 µM |
| Cc1c(Cl)ccc2c1NC(=O)[C@]21N[C@@H](Cc2ccccc2)[C@H]2C(=O)N(c3ccc(F)cc3)C(=O)[C@H]21 | NIH 3T3 | cytotoxicity |  |  |  | EC50 | ≥ 160 µM |
| CCN(CC)CCNC(=O)c1c(C)[nH]c(/C=C2\C(=O)Nc3ccc(F)cc32)c1C | hiPSC-derived cardiomyocytes |  |  | 72 h, tested 0 to 100 µM |  | beating cessation concentration | 3.7 µM |
| CCCCCCCCCCCCCCCCCCO[C@@H]1O[C@H](CO)[C@@H](O)[C@H](O)[C@H]1O | B16-F10 | cytotoxicity, MTT |  | 24 h |  | EC50 | 32 µM |
| CC(C)C[C@H](NC(=O)[C@H](Cc1ccccc1)NC(=O)c1cnccn1)B(O)O | RPMI-8226 | cytotoxicity |  |  |  | EC50 | 0.03 µM |
| Cc1c(O)c(C23CC4CC(CC(C4)C2)C3)cc2c1CC[C@@H]1[C@@H]2CC[C@]2(C)C(=O)CC[C@@H]12 | HT-22 | cell protection |  | with: iodoacetic acid 20 µM |  | EC50 | 0.164 µM |
| CNC(=O)c1ccccc1Sc1ccc2c(/C=C/c3ccccn3)n[nH]c2c1 | hiPSC-derived cardiomyocytes | contractility |  | 72 h |  | lowest effective concentration | 71.8 µM |
| CC(C)c1ccc2c(c1)CCC1C(C)(CNC(=O)c3ccccc3)CCCC21C (stereo not drawn) | mammalian cells | cytotoxicity |  |  |  | IC50 | > 100 µM |

| Compound | target or system | test | system | setting | how to read | measurement | result |
| --- | --- | --- | --- | --- | --- | --- | --- |
| COc1ccc(N(C)c2nc(C)nc3c2CC(C)C3)cc1 (racemic) | SK-OV-3 MDR1-M6/6 Pgp-expressing | cell growth |  |  |  | IC50 | 0.0444 ± 0.0032 µM |
| O=C1c2cccc3c2[C@H](CCC3)CN1[C@@H]1CN2CCC1CC2 |  |  | patients, plasma | oral, dose not given, netupitant-palonosetron combination, with: docetaxel 75 to 100 mg/m^2 IV |  | AUC(0-inf) | 85.6 ng·h/mL |
| O=C(O)c1cc2cc(Br)ccc2oc1=O | Glutamate NMDA receptor; Grin1/Grin2c (Rattus norvegicus, UniProt P35439+Q00961) |  |  | concentration not given |  | inhibition | 100% |
| Cc1nc(Nc2ncc(C(=O)Nc3c(C)cccc3Cl)s2)cc(N2CCN(CCO)CC2)n1 | hiPSC-derived cardiomyocytes |  |  | 72 h, tested 0 to 100 µM |  | beating cessation concentration | 3.7 µM |
| O=C1c2ccccc2-c2c1c1ccc([N+](=O)[O-])cc1c(=O)n2C[C@H](O)CO | ovarian OVCAR-3 | cell growth |  |  |  | GI50 | 0.309 µM |
| O=c1[nH]cc(F)c(=O)[nH]1 | Ca9-22 |  |  |  |  | CC50 | 18 ± 7.6 µM |
| Cn1c(Cn2ccc(C(F)(F)F)c(Oc3cc(Cl)cc(C#N)c3)c2=O)n[nH]c1=O | mock-infected MT-4 |  |  |  |  | CC50 | > 294 µM |
| COc1ccc(/C=C2\CCC/C(=C\c3ccc([N+](=O)[O-])cc3)C2=O)cc1 | HGF, HPC, HPLF normal cells |  |  |  |  | CC50 | > 400 µM |
| O=C1C(Nc2ccc(-c3ccccc3)cc2)=CC(=O)c2ncncc21 | MIA PaCa-2 | cytotoxicity |  |  |  | IC50 | 0.9 ± 0.2 µM |
| O=C(O)c1ccc(C=C2SC(=S)N(c3cccc(C(F)(F)F)c3)C2=O)cc1 | CFTR-null cell lines | reactive oxygen species production |  | 30 min |  | lowest effective concentration | 0.2 µM |
| O=C(O)CNC(=O)c1ccccc1[131I] |  |  | normal rat, liver | 60 min, with: co-injected 99mTc-1 |  | percent injected dose | 0.6 ± 0.3 %ID |
| Cc1ccc(OCC(=O)N(Cc2cccs2)c2ccn[nH]2)cc1 | Balb/c 3T3 |  |  | up to 100 µg/mL, with or without UVA 5 J/cm^2 |  | viability | < 68% |
| C[C@@H](Oc1cc(-c2cnn(C3CCNCC3)c2)cnc1N)c1c(Cl)ccc(F)c1Cl | hiPSC-derived cardiomyocytes |  |  | 72 h, tested 0 to 100 µM |  | beating cessation concentration | 11 µM |
| COc1ccc(/C=C/c2coc3ccc(OC)cc3c2=O)cc1 | human gingival fibroblasts |  |  |  |  | CC50 | 258 ± 126 µM |
| C#Cc1cccc(Nc2ncnc3cc(OCCOC)c(OCCOC)cc23)c1 | hiPSC-derived cardiomyocytes | contractility |  | concentration not given, 72 h, at effective concentration | relative to: baseline | log2 fold change | 0.51 |
| Nc1nc2c(nc(Sc3ccc(Cl)cc3)n2C2O[C@@H]3COP(=O)(O)O[C@H]3[C@H]2O)c(=O)[nH]1 (stereo in doubt) | PDE1C | cyclic nucleotide hydrolysis, substrate or inhibitor, isothermal titration calorimetry |  |  |  | Km or Ki | 47.1 µM |
| O=C1c2ccccc2-c2c1c1ccc([N+](=O)[O-])cc1c(=O)n2CCCN1CCOCC1 | CNS SF-539 | cell growth |  |  |  | GI50 | 0.095 µM |
| CCCS(=O)(=O)Nc1ccc(F)c(C(=O)c2c[nH]c3ncc(-c4ccc(Cl)cc4)cc23)c1F | hiPSC-derived cardiomyocytes | contractility |  | concentration not given, 72 h, at effective concentration | relative to: baseline | log2 fold change | 0.34 |

Excerpt of the above:
| Compound | target or system | test | system | setting | how to read | measurement | result |
| --- | --- | --- | --- | --- | --- | --- | --- |
| C[C@@H](Oc1cc(-c2cnn(C3CCNCC3)c2)cnc1N)c1c(Cl)ccc(F)c1Cl | hiPSC-derived cardiomyocytes |  |  | 72 h, tested 0 to 100 µM |  | beating cessation concentration | 11 µM |
| COc1ccc(/C=C/c2coc3ccc(OC)cc3c2=O)cc1 | human gingival fibroblasts |  |  |  |  | CC50 | 258 ± 126 µM |
| C#Cc1cccc(Nc2ncnc3cc(OCCOC)c(OCCOC)cc23)c1 | hiPSC-derived cardiomyocytes | contractility |  | concentration not given, 72 h, at effective concentration | relative to: baseline | log2 fold change | 0.51 |
| Nc1nc2c(nc(Sc3ccc(Cl)cc3)n2C2O[C@@H]3COP(=O)(O)O[C@H]3[C@H]2O)c(=O)[nH]1 (stereo in doubt) | PDE1C | cyclic nucleotide hydrolysis, substrate or inhibitor, isothermal titration calorimetry |  |  |  | Km or Ki | 47.1 µM |
| O=C1c2ccccc2-c2c1c1ccc([N+](=O)[O-])cc1c(=O)n2CCCN1CCOCC1 | CNS SF-539 | cell growth |  |  |  | GI50 | 0.095 µM |
| CCCS(=O)(=O)Nc1ccc(F)c(C(=O)c2c[nH]c3ncc(-c4ccc(Cl)cc4)cc23)c1F | hiPSC-derived cardiomyocytes | contractility |  | concentration not given, 72 h, at effective concentration | relative to: baseline | log2 fold change | 0.34 |
